# Assay results gathered from unrelated publications.
# Numbered parts are unrelated; each lists some results of a single study.

# Study 1 — technique: RNA Bind-n-Seq; form: RNA; sample: in vitro; tested at: 365 nM; relative to: no-protein control; direction: higher = stronger binding
# Target: RNA binding protein fox-1 homolog 2, RRM domain, GST-SBP tag (RBFOX2, Homo sapiens, UniProt O43251-10, residues 100-194)
# Notes: natural RNA segment, single round, ends assumed
# Constant ends, left off below: GGGAGUUCUACAGUCCGACGAUC … UGGAAUUCUCGGGUGCCAA
# Residues (chain): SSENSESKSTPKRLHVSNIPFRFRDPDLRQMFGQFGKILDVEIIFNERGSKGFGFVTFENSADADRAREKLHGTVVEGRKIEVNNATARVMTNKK
Strand,RBNS enrichment (R)
UGUUUUGUAAGCCACAUUGGUUCCUGUGAGCAUCUGACCGUCCCCCAUCGAGUAUUUCCCCCGGAACUGGAGAUUCGGGCGUCAUUUGGCUGCUACUUGCUUAGUGACUC,0.564
CCUUCAACAAGCACACUGACAGAGAAAAAAAAAUAUGCUACUGUCUGUUGGUUCCAAUAUUCUCCCACCUAGAGCUUCCUGUUAAAGCAAGUGCGAUCAGCAACAUUUUU,0.87
CAAGGUCAGCUGUCAAAAGGAUAAGCUGUGGGGUUAGAACAUAUUACAUUGCAACAUCCUAAAUUGUUUUUAAAACGUCAGCAAACUAUUGGGUCAACUGACAUCCAUUG,0.334
UUGCUUAAAACUGUACUCUUUUGCAAAUUAACAAUUUUAUCACUGAUUCAGAGUUAAAAAGAAGACUAACUUUUCAAGCAAAUGCAUCUGUAAAGAUGCUUUAGAUUAGA,0.377
GGAGAAAGCAGCAGCGUAGCGGGACCGUUUGGGAAAGGCUACUUUGGCUGGGGGUGGCUGGGAAAGGCCCCUCUGGGAAAGAGACAGUUUUACUGAGUCAGAUGGUGGAA,0.523
CUUAGCUGACAAAUUAUUGAUAAUUAAGAACUUGAAUUUGUGAUUCUUACUGCUAAUUAAAACCUAAGCAAGAAGUCUCAUGUAAUUCUGAUAGCAGAAUUGCAUUGUGU,0.412
CAGUGUUAUGAUCUCUUCCAGCUGUGCUCCAGUAGGGCGGAGAGCCUCGCACGUGCACCAGACCCCAUGAGAGGGCCGAGCUCUGCGAGGGGGAAAUGCCUUUGCAGCUC,0.562
UGUUCUGUGCCUGCCUGCGGUGAUGUAGCCAGAAGCACGUACUCAGGUCAUCAAGCCGAGAGGGCGUCAAAGAGGAAGCCUGGGCUGGGAUCCUUAGGCUCAGCUGUCUG,0.724

# Study 2 — technique: universal PBM; form: double-stranded DNA, one strand shown; sample: in vitro; tested at: not given; direction: higher = stronger binding
# Target: Sal-like protein 4, full length isoform B (SALL4, Homo sapiens, UniProt Q9UJQ4-2, residues 1-616)
# Notes: 8-mer, flanks averaged, mean of replicates
Strand,E-score
TAGTGAAA,0.176
CCTGCCCC,-0.311
ACAGATAG,0.0989
CCGGAGAG,-0.273
GTCCGGTA,-0.118
GTTTCTGA,-0.0836
GAGAAAAA,0.129
CACAATAG,0.0637
CAAAGAAG,-0.0155
CCAAGATC,-0.0713
CCATTTTC,0.158
GCGTAAGA,0.0393
AGCCTCGA,-0.214
CCGTGGCA,-0.215
ACGATAAC,0.122
GACACGCA,-0.0317
CTATGAGA,0.139
CACTCTAG,-0.0244
CCGCGACG,-0.283
CAGCATTC,-0.0276
CGCGCGGA,-0.331
TACCCCAA,-0.123

# Study 3 — technique: protein binding microarray; form: double-stranded DNA, one strand shown; sample: in vitro; tested at: not given; relative to: not given; direction: higher = stronger binding
# Target: Histone acetyltransferase KAT6A, winged helix 2, GST fusion (KAT6A, Homo sapiens, UniProt Q92794, residues 85-181)
# Notes: 8-mer, flanks averaged, mean of 2 arrays, mostly near background
# Residues (chain): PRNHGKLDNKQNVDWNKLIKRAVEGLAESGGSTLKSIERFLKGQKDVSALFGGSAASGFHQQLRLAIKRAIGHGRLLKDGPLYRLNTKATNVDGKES
Strand,E-score
GAGTACGC,-0.0216
CCTGTGTA,-0.0135
GTCGGCTA,0.105
TAGACCCA,0.013
ACATGTAT,-0.12
AAACTAAA,0.0428
AAGGAACT,-0.123
CGACTTAA,-0.0483
AGAGTAGA,0.0696
CCACATAC,-0.0946
GTCGTTTA,-0.0115
CAGGTTAC,-0.0491
AACCAATC,0.0261
ATGCTAGG,-0.149
CACGGGGA,0.0834
ACGGGAGC,-0.0229
CTGCGGCC,0.172
AAGTAGCT,-0.177
TACTTAGA,-0.075
TTAGTGAA,0.00464
ACGTATCT,-0.194
CGCAACCC,0.111
AGCGACCA,0.0225

# Study 4 — technique: RNA Bind-n-Seq; form: RNA; sample: in vitro; tested at: not given; relative to: input RNA pool; direction: higher = stronger binding
# Target: RING finger protein unkempt homolog, zinc fingers 1-6, GST-SBP tag (UNK, Homo sapiens, UniProt Q9C0B0, residues 30-357)
# Notes: RNA with constant flanks, human and mouse sites, ends assumed
# Constant ends, left off below: GGGAGUUCUACAGUCCGACGAUC … CAACAGAGGAUUGAGCAUCA
# Residues (chain): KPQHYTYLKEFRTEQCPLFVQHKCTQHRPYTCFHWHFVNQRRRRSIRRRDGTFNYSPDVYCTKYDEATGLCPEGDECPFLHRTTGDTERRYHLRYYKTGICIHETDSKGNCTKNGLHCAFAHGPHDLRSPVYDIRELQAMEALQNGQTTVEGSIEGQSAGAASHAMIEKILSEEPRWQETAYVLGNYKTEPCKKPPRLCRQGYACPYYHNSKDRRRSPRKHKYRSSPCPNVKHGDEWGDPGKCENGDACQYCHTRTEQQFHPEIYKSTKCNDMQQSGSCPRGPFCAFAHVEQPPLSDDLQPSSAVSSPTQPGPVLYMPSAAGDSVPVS
Strand,bound/input enrichment [ratio]
CAGAGAGCUUGACCAAGUUACAUAUUCUAGAGAUCGUCCUGAGUGCCAAGCACGUUUAUAAGUAGGGCGUGUAUUCCAGUCCUUUCUGUCAUUCUGUGUGUGUGUGUGUGUGCACUUAUG,0.409
GGUAUCAGGUCUCAAAACCAAGGUUCUUUGGCCCAGGGAAAGAAUUUUUUAAUGAGCAAAUUUUCAUCUCUAAAUCAAAAAGUGAAGCAGACCAAAUCCAAUGUAAAUAUUGGCAACCUC,0.215
GAUCGUCAUAUUCCUUUAGAUGAGCCAAUUGAUCUUCUGAAUGUGGCUUUUGUGCCUAAACAAAAAACAGGGCUACCUAUUCCUAACAUAGAAAGAAAACAGCAGAACCACCAUGAGAUC,0.753
UACCUAGAGAAUAUAUAUCCUGAUUCUCAAAUUCCACGUCACUAUUUCUCAUUGGGAGAGAUACGAAAUGUGGAAACGAAUCAGUGUCUAGAUAACAUGGCUAGAAAAGAGAAUGAAAAA,0.597
CGGAACACGAUCGCCUCCAUCGCUGCUGGCGUUCUAUUUUUCACGGGAUGGUGGAUCAUCAUAGACGCGGCUGUCAUGUACCCCAGGAUGGAUCAAUUCAACCAUUCAUACCAUACCUGU,0.0953
UCCCAGCACUUUGAUAAAAAGUGUGGACUGGUUGCUUGUAUUUUCCUUAUUCUUUUUAAUUAGUUUUAUUAUGUAUGCUACCAUUCGAACUGAGAGUAUUCGGUGGCUAAUUCCAGGACA,28.8
AAGGUUACUUCAAAUCUUGAGAAGAUCCAUCUAGGCUAUCAUAAAGAUUCUUCAGAAGGAAAUGUUGCAGUGGAGUGUGACCAAGUGACCUAUACUCAUUCUGCAGGAAGACCAACUCCU,0.165
GUCCUGACUUUCCUCCCCGCUCCGUGCAGCCGGGCCGUAGCGGCGAUGCGCCUCAUCCAGAACAUGUGUACCAUCGCAGAGUACCCCGCCCCAGGCAGCACCGCUGCCGACUGCUGCCUG,0.239

# Repeated from above (study 4):
Strand,bound/input enrichment [ratio]
GAUCGUCAUAUUCCUUUAGAUGAGCCAAUUGAUCUUCUGAAUGUGGCUUUUGUGCCUAAACAAAAAACAGGGCUACCUAUUCCUAACAUAGAAAGAAAACAGCAGAACCACCAUGAGAUC,0.753
AAGGUUACUUCAAAUCUUGAGAAGAUCCAUCUAGGCUAUCAUAAAGAUUCUUCAGAAGGAAAUGUUGCAGUGGAGUGUGACCAAGUGACCUAUACUCAUUCUGCAGGAAGACCAACUCCU,0.165
CAGAGAGCUUGACCAAGUUACAUAUUCUAGAGAUCGUCCUGAGUGCCAAGCACGUUUAUAAGUAGGGCGUGUAUUCCAGUCCUUUCUGUCAUUCUGUGUGUGUGUGUGUGUGCACUUAUG,0.409
UCCCAGCACUUUGAUAAAAAGUGUGGACUGGUUGCUUGUAUUUUCCUUAUUCUUUUUAAUUAGUUUUAUUAUGUAUGCUACCAUUCGAACUGAGAGUAUUCGGUGGCUAAUUCCAGGACA,28.8
UACCUAGAGAAUAUAUAUCCUGAUUCUCAAAUUCCACGUCACUAUUUCUCAUUGGGAGAGAUACGAAAUGUGGAAACGAAUCAGUGUCUAGAUAACAUGGCUAGAAAAGAGAAUGAAAAA,0.597
GUCCUGACUUUCCUCCCCGCUCCGUGCAGCCGGGCCGUAGCGGCGAUGCGCCUCAUCCAGAACAUGUGUACCAUCGCAGAGUACCCCGCCCCAGGCAGCACCGCUGCCGACUGCUGCCUG,0.239
